Measurements from different studies.
Each line is one published result; not all experiments were run side by side. ± marks the error that the study gave.
Chain of UniProt Q9NQU5 (whole entry, looked up): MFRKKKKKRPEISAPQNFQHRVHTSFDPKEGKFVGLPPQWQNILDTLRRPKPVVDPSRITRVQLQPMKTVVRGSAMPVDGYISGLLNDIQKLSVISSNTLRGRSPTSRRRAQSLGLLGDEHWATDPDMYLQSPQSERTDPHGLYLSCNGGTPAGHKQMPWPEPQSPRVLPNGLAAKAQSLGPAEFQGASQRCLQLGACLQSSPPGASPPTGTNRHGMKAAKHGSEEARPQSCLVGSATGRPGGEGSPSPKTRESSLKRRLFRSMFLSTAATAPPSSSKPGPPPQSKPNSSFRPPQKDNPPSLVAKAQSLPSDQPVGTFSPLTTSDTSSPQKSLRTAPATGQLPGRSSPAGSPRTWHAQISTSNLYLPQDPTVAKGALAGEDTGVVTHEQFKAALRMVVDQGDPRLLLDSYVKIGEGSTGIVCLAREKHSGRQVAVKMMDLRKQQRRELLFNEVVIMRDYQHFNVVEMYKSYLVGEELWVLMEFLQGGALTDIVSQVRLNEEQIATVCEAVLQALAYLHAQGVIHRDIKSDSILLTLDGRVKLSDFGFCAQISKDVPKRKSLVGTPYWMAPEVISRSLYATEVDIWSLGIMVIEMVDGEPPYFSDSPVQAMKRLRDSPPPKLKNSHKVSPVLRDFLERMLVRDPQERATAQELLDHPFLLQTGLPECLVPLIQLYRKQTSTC

`CC[C@H](C)[C@H](NC(=O)[C@H](CCCCN)NC(=O)CNC(=O)[C@H](CC(C)C)NC(=O)[C@H](Cc1ccccc1)NC(=O)[C@H](CCCCN)NC(=O)[C@H](CO)NC(=O)[C@H](Cc1ccccc1)NC(=O)[C@H](Cc1c[nH]c2ccccc12)NC(=O)[C@H](CCC(N)=O)NC(=O)[C@@H](NC(=O)[C@H](Cc1ccccc1)NC(=O)CCCCCNC(=O)CN1CCN(CC(=O)O)CCN(CC(=O)O)CCN(CC(=O)O)CC1)C(C)C)C(=O)N[C@@H](CCC(=O)O)C(=O)N1CCC[C@H]1C(=O)N[C@@H](CC(=O)O)C(=O)N[C@H](C(=O)N[C@@H](CO)C(=O)N[C@@H](CCC(N)=O)C(=O)N[C@H](C(=O)N[C@@H](CCC(N)=O)C(=O)N[C@@H](CC(=O)O)C(=O)N1CCC[C@H]1C(=O)N[C@@H](CC(N)=O)C(=O)N[C@@H](CC(=O)O)C(=O)N[C@@H](CCC(N)=O)C(=O)N[C@@H](Cc1ccc(O)cc1)C(=O)N[C@@H](CCC(=O)O)C(=O)N1CCC[C@H]1C(=O)N[C@@H](Cc1ccccc1)C(=O)O)C(C)C)C(C)C` [copper-64 labelled] has a tissue uptake of 7.43 ± 0.7 %ID/g (C57BL/6 male mouse, tumour-naive, lung; 4 h).
Under “revertant colonies per plate”, `Cc1nc2cccc(OCC(C)(C)C(=O)NC(C)C)c2c(N)c1C(=O)[O-].[Na+]` is recorded as 18 ± 2 (Salmonella typhimurium; TA1537; 0.32 mg per plate, with S9, preincubation).
For `CSCC[C@H](NC(=O)CNC(=O)[C@H](CCCCN)NC(=O)[C@H](CC(C)C)NC(=O)[C@@H]1CCCN1C(=O)[C@H](CO)NC(=O)[C@H](Cc1c[nH]cn1)NC(=O)[C@H](Cc1c[nH]c2ccccc12)NC(=O)[C@H](CCCNC(=N)N)NC(=O)[C@H](CC(C)C)NC(=O)[C@H](CCCNC(=N)N)NC(=O)[C@H](Cc1c[nH]c2ccccc12)NC(=O)[C@H](CS)NC(=O)CCCCCNC(=O)CN1CCN(CC(=O)O)CCN(CC(=O)O)CCN(CC(=O)O)CC1)C(=O)O` [copper-64 labelled], the tissue uptake was 0.43 %ID/g (ex vivo biodistribution; male C57BL/6J mice, muscle; intravenous, 1.85 MBq, 30 h, B16-F10 tumour-bearing).
`CCOP(=O)(CNC(=O)CN1CCN(CC(=O)NCP(=O)(OCC)OCC)CCN(CC(=O)NCP(=O)(OCC)OCC)CCN(CC(=O)NCP(=O)(OCC)OCC)CC1)OCC.[177Lu+3]` has a tissue uptake of 0.04 ± 0.008 % injected dose/g (Sprague-Dawley rat, blood; intravenous (tail vein), dose not given, 2 h).
The remaining activity of `O=C1NC(=O)c2c1c1cc(F)c[n+]3c1c1c2c2cc(O)ccc2[n]1[Ru-4]312([N]=C=S)[S+]3CC[S+]1CC[S+]2CC3` (stereo not shown) is reported as 62% (Serine/threonine-protein kinase PAK 6 (PAK6, Homo sapiens, UniProt Q9NQU5); enzyme activity; 100 nM, human enzyme, with: 10 µM ATP; reference: untreated).
`CC[C@H](C)[C@H](NC(=O)[C@H](CCCNC(=N)N)NC(=O)[C@H](CCCCN)NC(=O)[C@H](Cc1ccc(O)cc1)NC(=O)[C@H](CC(=O)O)NC(=O)[C@H](C)NC(=O)CNC(=O)CCOCCOCCOCCNC(=O)CN1CCN(CC(=O)O)CCN(CC(=O)O)CCN(CC(=O)O)CC1)C(=O)N[C@H](C(=O)N[C@@H](CC(C)C)C(=O)N[C@@H](CCCCN)C(=O)N[C@H](C(=O)N[C@@H](CC(N)=O)C(N)=O)C(C)C)[C@@H](C)O` [copper-64 labelled] gave a tissue uptake of 3.82 ± 1.31 %ID/g (ex vivo gamma counting; C57BL/6J male mice, B16-F10 tumour, liver; intravenous, 1.85 MBq, 100 min).
`C[C@H](O)[C@@H](NC(=O)[C@H]1CCCN1C(=O)[C@@H](CCCCN)NC(=O)[C@@H](CO)NC(=O)[C@@H](Cc1ccc(O)cc1)NC(=O)[C@@H](CC(N)=O)NC(=O)CCOCCOCCOCCNC(=O)CN1CCN(CC(=O)O)CCN(CC(=O)O)CCN(CC(=O)O)CC1)C(=O)N[C@H](CC(=O)O)C(=O)N[C@H](CCCNC(=N)N)C(=O)N[C@H](CCC(N)=O)C(=O)N[C@H](Cc1ccc(O)cc1)C(=O)N[C@H](Cc1c[nH]cn1)C(=O)N[C@H](Cc1ccccc1)C(N)=O` [gallium-68 labelled] has a tissue uptake of 5.2 ± 0.31 %ID/g (BALB/c nude mice U-87 MG tumour, kidney; intravenous, 1.85 MBq, 2 h, radiolabelled).
`O=C([O-])CNC(=O)CN1CCN(CC(=O)NCC(=O)[O-])CCN(CC(=O)NCC(=O)[O-])CCN(CC(=O)NCC(=O)[O-])CC1.[177Lu+3]` gave a tissue uptake of 0.233 ± 0.183 % injected dose/g (Sprague-Dawley rat, spleen; intravenous (tail vein), dose not given, 2 h).
`COc1ccccc1-c1n[nH]c2nc(NC3CCN(C(=O)Cc4ccc(F)cc4F)CC3)ncc12` has a relative abundance of 1.09 (bead binding, competition bead pull-down, measured: LINJ.34.3890; Leishmania donovani extract; 10 µM; reference: vehicle).
With `O=C1NC2(CC2)COc2ncc(F)cc2[C@H]2COCCN2c2ccn3ncc1c3n2` the serum triglycerides was 0.34 ± 0.12 mmol/L (Sprague-Dawley rat, female, serum; oral, 2.5 mg/kg/day, end of recovery, 4-week subacute toxicity).
`CN1Cc2cc(Cl)ccc2-n2c(nnc2C2CCN(c3cccc([18F])n3)CC2)C1` gave a tissue uptake of 2.36 ± 0.38 %ID/g (C57BL/6 mouse male, muscle; intravenous, 3.7 MBq, 15 min).
For `CC(C)C[C@@H](NC(=O)[C@@H](CCCNC(=N)N)NC(=O)[C@@H](Cc1c[nH]cn1)NC(=O)[C@@H](Cc1c[nH]c2ccccc12)NC(=O)[C@@H](Cc1c[nH]cn1)NC(=O)[C@@H](Cc1ccccc1)NC(=O)[C@H](NC(=O)[C@@H](Cc1ccc(O)cc1)NC(=O)CNC(=O)CNC(=O)CCOCCOCCOCCNC(=O)CN1CCN(CC(=O)O)CCN(CC(=O)O)CC1)[C@H](C)O)C(=O)N[C@H](CC(N)=O)C(=O)N1CCC[C@@H]1C(=O)O` [gallium-68 labelled], the tissue uptake was 0.84 ± 0.32 %ID/g (C57BL/6 mice, male, stomach; intravenous, 1.85 MBq, 60 min, with: blocking antibody).
`CCCC[C@H]1C(=O)N(C)[C@@H](CCCC)C(=O)N[C@@H](CCCNC(=O)CN2CCN(CC(=O)O)CCN(CC(=O)O)CCN(CC(=O)O)CC2)C(=O)N[C@H](C(=O)NCC(N)=O)CSCC(=O)N[C@@H](Cc2ccc(O)cc2)C(=O)N(C)[C@@H](C)C(=O)N[C@@H](CC(N)=O)C(=O)N2CCC[C@H]2C(=O)N[C@@H](Cc2c[nH]cn2)C(=O)N[C@@H](CC(C)C)C(=O)N(C)CC(=O)N[C@@H](Cc2c[nH]c3ccccc23)C(=O)N[C@@H](CO)C(=O)N[C@@H](Cc2c[nH]c3ccccc23)C(=O)N1C` [gallium-68 labelled] gave a tissue uptake of 15.6 ± 0.41 %ID/g (NOD/SCID mice with CHO-hPD-L1 xenograft, lung; 60 min post injection).

A few entries again:
For `CSCC[C@H](NC(=O)CNC(=O)[C@H](CCCCN)NC(=O)[C@H](CC(C)C)NC(=O)[C@@H]1CCCN1C(=O)[C@H](CO)NC(=O)[C@H](Cc1c[nH]cn1)NC(=O)[C@H](Cc1c[nH]c2ccccc12)NC(=O)[C@H](CCCNC(=N)N)NC(=O)[C@H](CC(C)C)NC(=O)[C@H](CCCNC(=N)N)NC(=O)[C@H](Cc1c[nH]c2ccccc12)NC(=O)[C@H](CS)NC(=O)CCCCCNC(=O)CN1CCN(CC(=O)O)CCN(CC(=O)O)CCN(CC(=O)O)CC1)C(=O)O` [copper-64 labelled], the tissue uptake was 0.43 %ID/g (ex vivo biodistribution; male C57BL/6J mice, muscle; intravenous, 1.85 MBq, 30 h, B16-F10 tumour-bearing).
`CCOP(=O)(CNC(=O)CN1CCN(CC(=O)NCP(=O)(OCC)OCC)CCN(CC(=O)NCP(=O)(OCC)OCC)CCN(CC(=O)NCP(=O)(OCC)OCC)CC1)OCC.[177Lu+3]` has a tissue uptake of 0.04 ± 0.008 % injected dose/g (Sprague-Dawley rat, blood; intravenous (tail vein), dose not given, 2 h).
